Assay results from different studies.
Each line is one published result; not all experiments were run side by side. Converted amounts (≈) assume the structure as drawn.

| Structure (SMILES) | target or system | test | test system | setting | how to read | measurement | value |
| --- | --- | --- | --- | --- | --- | --- | --- |
| Cn1ncc2cc(-c3cncc(Cl)c3N3CCC4(CCNC4=O)CC3)ccc21 | LS174T | gene expression, microarray, refers to: SLC39A8 mRNA |  | concentration not given, 24 h | reference: untreated cells | log2 fold change | -2.21 |
| Cc1ncsc1-c1ccc(C(C)NC(=O)C2CC(O)CN2C(=O)C(NC(=O)CCCCCCCCCCN2CCCC(Nc3ncc(Cl)c(Nc4ccccc4S(=O)(=O)C(C)C)n3)C2)C(C)(C)C)cc1 (stereo not drawn) | 22Rv1 | RNA-seq, refers to: MEPCE mRNA |  | concentration not given | reference: DMSO | log2 fold change | -1.68 |
| N=C(N)NCCC[C@@H]1NC(=O)[C@H](CCCNC(=N)N)NC(=O)[C@@H](CCCNC(=N)N)NC(=O)[C@@H](CCCNC(=N)N)NC(=O)[C@@H](C(c2ccccc2)c2ccccc2)NC(=O)[C@@H](Cc2c[nH]c3ccccc23)NC(=O)[C@@H](C(c2ccccc2)c2ccccc2)NC1=O | Candida albicans |  | CA3 |  |  | MIC | 32 µg/mL (≈ 25.4 µM) |
| C=C(NC(=O)c1csc(-c2nc3c(cc2O)-c2nc(cs2)C(=O)NC(C(C)O)C(=O)NC(=C(C)OC)c2nc(cs2)C(=O)NC2c4nc(cs4)C(=O)NC(COC(=O)c4c5c6c(cccc6n4O)COC(=O)C(OC4CC(C)(O)C(N(C)C)C(C)O4)C2OC5)c2nc-3cs2)n1)C(N)=O (stereo not drawn) | Streptococcus pneumoniae |  | penicillin-resistant, 10 isolates | pH 8.5 |  | MIC50 | 0.0156 µg/mL (≈ 0.0109 µM) |
| C=CC(=O)Nc1cccc(Cn2ncc3cnc(Nc4cnn(CCOC)c4)nc32)c1 | CDK5 human | binding, KINOMEscan |  | 100 nM | lower = stronger binding | percent of control | 97% |
| CNS(=O)(=O)Nc1nccc(Cc2c(C)c3ccc(Oc4ncccc4F)cc3oc2=O)c1F | U2932 | cell viability |  | 7 days |  | IC50 | 20.4 nM |
| C=CC(=O)N1[C@H](c2ccc3c(c2)OCO3)c2[nH]c3ccccc3c2C[C@@H]1C(=O)N1CCN(C)CC1 | human cyclin E1 N112C-3xFLAG:CDK2 | co-IP with TMT proteomics, refers to: THRAP3 |  | concentration not given, Q9Y2W1 | reference: wild type DMSO | relative co-enrichment | 121% |
| CCN(CC)CC(=O)Nc1cccc(-n2cc(-c3ccc4ccc(-c5cn(-c6cccc(NC(=O)CN(CC)CC)c6)nn5)cc4c3)nn2)c1 | RCC4 | PCR angiogenesis array, refers to: PLAU |  | 5 x IC50, 2 h, normoxia | reference: untreated | fold regulation | -1.19 |
| CN1CCCNC(=O)c2cccc(c2)C(=O)NCCCN(C)CCCNc2cccc3c2C(=O)c2cccc(c2C3=O)NCCC1 | SAS | RNA-Seq, refers to: SAFB mRNA |  | 1 µM, 6 h | reference: untreated cells | log2 fold change | 0.6 |
| CN1CCC[C@]1(C)/C=C/S(=O)(=O)NC(=O)Nc1c2c(cc3c1CCC3)CCC2 |  |  | human, whole blood ex vivo | 12.5 mg twice daily, day 1, 3 h, multiple ascending dose, added: LPS and ATP |  | IL-18 inhibition | 113% |
| COC1CN([C@H]2CC[C@H]([C@@]3(C)Oc4c(Cl)cc(C(=O)NCc5c(SC)cc(C)[nH]c5=O)c(C)c4O3)CC2)C1 |  | RNA-seq, refers to: NLRX1 | human, whole blood | dose not given, 24 h | reference: pretreatment baseline | log2 fold change | 1.48 |
| Nc1ncc(-c2cc(-c3cnn(CC(F)(F)F)c3)ncc2F)nc1C(=O)NC1CNCC(F)C1 (stereo not drawn) | MRCKA | KINOMEscan competition binding |  | 1 µM | reference: DMSO control | remaining binding | 97% |

Excerpt of the above:
| Structure (SMILES) | target or system | test | test system | setting | how to read | measurement | value |
| --- | --- | --- | --- | --- | --- | --- | --- |
| CN1CCC[C@]1(C)/C=C/S(=O)(=O)NC(=O)Nc1c2c(cc3c1CCC3)CCC2 |  |  | human, whole blood ex vivo | 12.5 mg twice daily, day 1, 3 h, multiple ascending dose, added: LPS and ATP |  | IL-18 inhibition | 113% |
| Cc1ncsc1-c1ccc(C(C)NC(=O)C2CC(O)CN2C(=O)C(NC(=O)CCCCCCCCCCN2CCCC(Nc3ncc(Cl)c(Nc4ccccc4S(=O)(=O)C(C)C)n3)C2)C(C)(C)C)cc1 (stereo not drawn) | 22Rv1 | RNA-seq, refers to: MEPCE mRNA |  | concentration not given | reference: DMSO | log2 fold change | -1.68 |
